Assay results of several laboratories.
Every numbered part comes from another study and shows a few of its results, in no order. Substitutions count along the parent as printed.

Study 1
Target: Ras GTPase-activating protein-binding protein 1, C-terminal RGG region (G3BP1, Homo sapiens, UniProt Q13283)
Sequence of UniProt Q13283 (whole entry, looked up): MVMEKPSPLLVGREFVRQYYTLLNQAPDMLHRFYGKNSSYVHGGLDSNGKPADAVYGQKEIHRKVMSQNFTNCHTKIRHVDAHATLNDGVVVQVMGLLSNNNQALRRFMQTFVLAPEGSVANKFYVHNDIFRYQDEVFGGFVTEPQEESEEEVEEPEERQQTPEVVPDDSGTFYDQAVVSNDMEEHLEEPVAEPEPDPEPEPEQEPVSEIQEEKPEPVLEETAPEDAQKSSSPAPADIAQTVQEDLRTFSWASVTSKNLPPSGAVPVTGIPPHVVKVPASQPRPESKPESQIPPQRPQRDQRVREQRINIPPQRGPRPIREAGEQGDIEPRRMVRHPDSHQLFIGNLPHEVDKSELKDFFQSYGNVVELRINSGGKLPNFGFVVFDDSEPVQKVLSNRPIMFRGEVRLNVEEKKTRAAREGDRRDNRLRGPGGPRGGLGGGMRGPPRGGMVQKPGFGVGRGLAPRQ
Technique: RNA Bind-n-Seq
Form: RNA
Medium: in vitro
Concentration: 1 µM
Notes: whole 134-nt RNA, ends assumed
With: 150 mM KCl
Relative to: input library
Reading: higher = stronger binding
All sequences stand within: GGGAGUUCUACAGUCCGACGAUC … UGGAAUUCUCGGGUGUCAAGG
Oligonucleotide	log2 enrichment
UCCUCAAGUCCUGUGCUACACAUCGUAUGUACCGAAUCGGUGGAGGAAAGGAAAGUAUUAUGUUACGCCGUUCGGAUCUGCACUUCCAGC	-1.06
UAACUUUAGAUGAGGAUCUGAUGGAUAUGGCAGUGGACGUGGAUUUGGGGAUGGCUAUAAUGGGUAUGGAGGAGGACCUGGAGGUGGCAA	-1.65
CACAGACAACACGCACCCACACAGACACAGAGGGAAGGGGUUGGGAUGGGGACAGGGUGCACAGCAGGGCGGGGUAGGACCCCAGCCCGU	-0.981
UCAAGUCCUGUGCUACACAUCGUAUGUACCGAAUCGGAAAGGAAAAAGGUUUGGAAAGUAUUAUGUUACGCCGUUCGGAUCUGCACUUCC	-1.47
UACUCUUUGAUUUAUCAAAUGUGUUCAGUUGGAGAAUCGUCCUCAGGAAAGGCUUCAAGGAGCCUUGCACAGCAUAUUCCUGGCCCUGGU	-1.54
CAAGUCCUGUGCUACACAUCGUAUGUACCGAAUCGGGCCCGGGGCCCGGCCCGGGAAAGUAUUAUGUUACGCCGUUCGGAUCUGCACUUC	-1.87
GUCCUGUGCUACACAUCGUAUGUACCGAAUCGGGUUUUUUUGGGUUUUUUUGGGUGGGAAAGUAUUAUGUUACGCCGUUCGGAUCUGCAC	0.0541
UAACUUUAGAGGAGGAUCUGAUGGAUAUGGCAGUGGACGUGGAUUUGGGGAUGGCUAUAAUGGGUAUGAAGGAGGACCUGGAGGUGGCAA	-0.8

Study 2
Target: CCNB1, cyclin fold, Cln2 fusion (human)
Technique: yeast growth competition, sequencing
Medium: yeast
Notes: weak parent motif
Relative to: not given
Reading: higher = stronger binding
Starting sequence: CDC25A docking peptide (human); PPHRRRLLFACSP
Substitution	normalised enrichment score
PPHRRFLLFACSP [R6F]	0.211
PPDRRRLLFACSP [H3D]	1.24
PPHRRRLLFACWP [S12W]	0.934
PPHRRRLLFACSV [P13V]	0.107
PVHRRRLLFACSP [P2V]	0.535
PPHRRRLLFECSP [A10E]	0.335
PKHRRRLLFACSP [P2K]	0.781

Study 3
Target: Prothrombin, mature alpha-thrombin (F2, Homo sapiens, UniProt P00734)
Technique: aptamer microarray, sandwich
Form: DNA with 2'F-ANA
Medium: in vitro
Concentration: 200 nM
Notes: whole 15-mer aptamer, many near background
With: Cy3 exosite-II aptamer, 400 nM
Reading: higher = stronger binding
Oligonucleotide: GGTTGGTGTGGTTGG
Modification	mean fluorescence intensity
2'F-ANA at 4 7 8 10 14 15	67.5 a.u.
2'F-ANA at 6 7 10 11 15	141 a.u.
2'F-ANA at 6 9 10 11 14	104 a.u.
2'F-ANA at 3 4 5 8 9 11 14 15	49.7 a.u.
2'F-ANA at 4 7 11 12 13	380 a.u.
2'F-ANA at 1 2 4 6 7 11 13 14 15	57.5 a.u.
2'F-ANA at 3 4 5 6 7 8 9 10 12 15	57.9 a.u.

Further values, each from its own experiment
Molecule	target	test	test system	setting	scale	measurement	value
PhoQ, residues 284 288 289 292 302 303 SSTLSG	PhoP, residues 12 14 15 18 19 AWHSL (Escherichia coli, UniProt P23836)	Sort-seq, refers to: YFP reporter	E. coli	PhoQ-PhoP variant library, with: 10 µM Mg2+	relative to: high Mg2+ state, higher = stronger signaling	fold induction	2.2

Repeated from above (study 2):
Substitution	normalised enrichment score
PVHRRRLLFACSP [P2V]	0.535
PPHRRRLLFECSP [A10E]	0.335
PKHRRRLLFACSP [P2K]	0.781
